Results gathered from unrelated publications.
Several values in a cell are separate wells, animals, samples, runs or records. ± gives the spread as reported. ≈ marks a conversion by molar mass, not a printed value.

| Compound | tested on | test | system | setting | scale | measurement | result |
| --- | --- | --- | --- | --- | --- | --- | --- |
| CN1CCCNC(=O)c2cccc(c2)C(=O)NCCCN(C)CCCNc2cccc3c2C(=O)c2cccc(c2C3=O)NCCC1 | SAS | RNA-Seq, measured: KCMF1 mRNA | – | 1 µM, 6 h | baseline: untreated cells | log2 fold change | -0.525 |
| Nc1ncc(-c2cc(-c3cnn(CC(F)(F)F)c3)ncc2F)nc1C(=O)NC1CNCC(F)C1 (stereo not shown) | EPHB3 | KINOMEscan | – | 1 µM | baseline: DMSO control | remaining binding | 94% |
| Cc1ncsc1-c1ccc(C(C)NC(=O)C2CC(O)CN2C(=O)C(NC(=O)CCCCCCCCCCN2CCCC(Nc3ncc(Cl)c(Nc4ccccc4S(=O)(=O)C(C)C)n3)C2)C(C)(C)C)cc1 (stereo not shown) | 22Rv1 | RNA-seq, measured: SEMA4C mRNA | – | concentration not given | baseline: DMSO | log2 fold change | -1.6 |
| CNS(=O)(=O)Nc1nccc(Cc2c(C)c3ccc(Oc4ncccc4F)cc3oc2=O)c1F | SK-ES1 | cell viability | – | 7 days | – | IC50 | > 1000 nM |
| COc1cccc(Nc2nc(NCC3CCCO3)c3ccccc3n2)c1.Cl (stereo not shown) | Trypanosoma cruzi | reporter mRNA translation, inhibitor, measured: capped polyadenylated Renilla luciferase mRNA | cell-free extract | concentration not given | baseline: positive over negative control | translation activity | 86.3% and 76.7% and 78.9% and 77.8% |
| C=CC(=O)Nc1cccc(Cn2ncc3cnc(Nc4cnn(CCOC)c4)nc32)c1 | MUSK human | binding, KINOMEscan | – | 100 nM | lower = stronger binding | percent of control | 94% |
| CN(C)CCCN(C(=O)c1nc2ccccc2s1)c1nc2ccc(F)cc2s1 | Trypanosoma cruzi | reporter mRNA translation, inhibitor, measured: Renilla luciferase mRNA | cell-free extract | concentration not given, test 2 | baseline: positive over negative control | translation activity | 99.2% |
| COC1CN([C@H]2CC[C@H]([C@@]3(C)Oc4c(Cl)cc(C(=O)NCc5c(SC)cc(C)[nH]c5=O)c(C)c4O3)CC2)C1 | – | RNA-seq, measured: mouse JUP homolog | mouse, HT-1376 xenograft, whole blood | dose not given, PRC2 target gene | baseline: vehicle | log2 fold change | 0.612 |
| C=C(NC(=O)c1csc(-c2nc3c(cc2O)-c2nc(cs2)C(=O)NC(C(C)O)C(=O)NC(=C(C)OC)c2nc(cs2)C(=O)NC2c4nc(cs4)C(=O)NC(COC(=O)c4c5c6c(cccc6n4O)COC(=O)C(OC4CC(C)(O)C(N(C)C)C(C)O4)C2OC5)c2nc-3cs2)n1)C(N)=O (stereo not shown) | Streptococcus pyogenes | broth microdilution | – | – | – | MIC90 | 0.0312 µg/mL (≈ 0.0217 µM) |
| COc1cc(O)ccc1CCC(c1ccc(O)cc1)c1cc2c(c(C)c1O)OC(c1ccc(O)cc1)CC2 (mixture of isomers) | – | measured: 12-HEPE | human whole blood | 3 µM, with: A23187 | – | amount | 110 ± 11 pg/mL blood |

Excerpt of the above:
| Compound | tested on | test | system | setting | scale | measurement | result |
| --- | --- | --- | --- | --- | --- | --- | --- |
| COc1cc(O)ccc1CCC(c1ccc(O)cc1)c1cc2c(c(C)c1O)OC(c1ccc(O)cc1)CC2 (mixture of isomers) | – | measured: 12-HEPE | human whole blood | 3 µM, with: A23187 | – | amount | 110 ± 11 pg/mL blood |
